Measurements of several laboratories.
A part holds a random share of what one study measured.
UniProt Q15349, sequence (whole entry, looked up): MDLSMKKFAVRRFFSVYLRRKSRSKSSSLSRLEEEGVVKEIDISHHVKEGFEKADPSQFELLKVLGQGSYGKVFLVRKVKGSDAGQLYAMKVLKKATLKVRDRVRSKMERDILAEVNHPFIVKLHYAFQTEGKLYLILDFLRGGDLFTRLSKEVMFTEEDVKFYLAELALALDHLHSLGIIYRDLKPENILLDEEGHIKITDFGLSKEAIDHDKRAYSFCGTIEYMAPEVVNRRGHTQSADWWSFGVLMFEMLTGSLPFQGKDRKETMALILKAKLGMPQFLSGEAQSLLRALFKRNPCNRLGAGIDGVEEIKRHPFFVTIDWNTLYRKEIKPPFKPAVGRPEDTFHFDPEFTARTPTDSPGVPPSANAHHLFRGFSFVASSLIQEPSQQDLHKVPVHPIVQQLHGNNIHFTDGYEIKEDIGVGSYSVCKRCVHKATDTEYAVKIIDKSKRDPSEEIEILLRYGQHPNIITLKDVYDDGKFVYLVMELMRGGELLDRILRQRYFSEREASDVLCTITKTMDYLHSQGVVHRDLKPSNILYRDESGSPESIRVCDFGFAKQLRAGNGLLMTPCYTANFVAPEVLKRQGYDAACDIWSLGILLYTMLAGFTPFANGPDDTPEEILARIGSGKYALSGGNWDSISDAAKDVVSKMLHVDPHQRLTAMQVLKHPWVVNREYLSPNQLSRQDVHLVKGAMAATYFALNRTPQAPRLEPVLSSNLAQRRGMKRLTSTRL
UniProt P36507, sequence (whole entry, looked up): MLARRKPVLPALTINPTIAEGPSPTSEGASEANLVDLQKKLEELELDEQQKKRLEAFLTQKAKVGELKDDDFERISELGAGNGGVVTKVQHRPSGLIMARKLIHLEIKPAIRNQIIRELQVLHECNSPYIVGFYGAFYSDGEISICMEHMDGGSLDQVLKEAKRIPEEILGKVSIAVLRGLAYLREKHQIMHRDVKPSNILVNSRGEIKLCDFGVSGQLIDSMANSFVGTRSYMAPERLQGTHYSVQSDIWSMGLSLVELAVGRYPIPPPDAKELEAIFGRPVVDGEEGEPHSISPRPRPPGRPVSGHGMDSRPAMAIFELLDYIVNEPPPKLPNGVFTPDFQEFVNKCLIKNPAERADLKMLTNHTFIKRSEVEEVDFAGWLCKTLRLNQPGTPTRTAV
UniProt Q8IYT8, sequence (whole entry, looked up): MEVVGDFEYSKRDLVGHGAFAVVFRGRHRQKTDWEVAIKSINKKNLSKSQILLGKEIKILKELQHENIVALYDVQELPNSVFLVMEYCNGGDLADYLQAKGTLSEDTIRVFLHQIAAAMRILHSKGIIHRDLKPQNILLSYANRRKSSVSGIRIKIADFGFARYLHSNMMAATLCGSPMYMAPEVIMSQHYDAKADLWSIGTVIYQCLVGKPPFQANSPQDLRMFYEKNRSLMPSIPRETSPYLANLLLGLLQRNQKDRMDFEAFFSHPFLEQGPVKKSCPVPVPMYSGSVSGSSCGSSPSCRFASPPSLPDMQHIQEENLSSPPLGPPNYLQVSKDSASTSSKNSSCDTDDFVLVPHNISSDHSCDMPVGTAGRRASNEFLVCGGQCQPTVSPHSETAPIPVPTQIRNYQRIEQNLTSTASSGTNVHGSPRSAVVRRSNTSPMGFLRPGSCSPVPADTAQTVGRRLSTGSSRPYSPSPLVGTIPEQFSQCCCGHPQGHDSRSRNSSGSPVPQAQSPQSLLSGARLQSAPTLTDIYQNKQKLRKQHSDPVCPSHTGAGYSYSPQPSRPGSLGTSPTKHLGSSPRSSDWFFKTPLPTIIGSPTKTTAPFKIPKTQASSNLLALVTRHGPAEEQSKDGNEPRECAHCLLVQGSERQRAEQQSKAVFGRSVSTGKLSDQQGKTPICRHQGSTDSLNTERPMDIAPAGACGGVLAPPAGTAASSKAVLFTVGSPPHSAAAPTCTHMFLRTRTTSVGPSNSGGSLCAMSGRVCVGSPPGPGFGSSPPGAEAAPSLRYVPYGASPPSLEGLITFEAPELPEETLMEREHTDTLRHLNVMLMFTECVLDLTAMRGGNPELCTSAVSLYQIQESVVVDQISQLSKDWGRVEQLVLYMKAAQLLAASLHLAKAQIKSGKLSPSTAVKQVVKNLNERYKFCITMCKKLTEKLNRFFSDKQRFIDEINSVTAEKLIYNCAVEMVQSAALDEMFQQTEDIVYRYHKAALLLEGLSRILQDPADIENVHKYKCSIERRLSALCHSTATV
UniProt O00238, sequence (whole entry, looked up): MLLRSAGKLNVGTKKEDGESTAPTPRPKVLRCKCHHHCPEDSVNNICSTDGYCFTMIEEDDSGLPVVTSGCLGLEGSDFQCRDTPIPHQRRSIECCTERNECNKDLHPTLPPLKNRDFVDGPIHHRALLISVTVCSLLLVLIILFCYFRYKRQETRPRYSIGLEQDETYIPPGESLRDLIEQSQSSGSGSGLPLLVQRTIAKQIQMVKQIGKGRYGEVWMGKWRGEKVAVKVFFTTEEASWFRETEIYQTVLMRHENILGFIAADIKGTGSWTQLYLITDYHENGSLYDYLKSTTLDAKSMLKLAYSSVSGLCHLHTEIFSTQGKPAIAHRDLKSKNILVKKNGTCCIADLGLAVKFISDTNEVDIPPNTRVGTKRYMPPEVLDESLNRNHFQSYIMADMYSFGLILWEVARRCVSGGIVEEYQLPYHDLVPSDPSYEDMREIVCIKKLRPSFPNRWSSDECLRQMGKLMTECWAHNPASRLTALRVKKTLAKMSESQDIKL
UniProt Q9BWU1, sequence (whole entry, looked up): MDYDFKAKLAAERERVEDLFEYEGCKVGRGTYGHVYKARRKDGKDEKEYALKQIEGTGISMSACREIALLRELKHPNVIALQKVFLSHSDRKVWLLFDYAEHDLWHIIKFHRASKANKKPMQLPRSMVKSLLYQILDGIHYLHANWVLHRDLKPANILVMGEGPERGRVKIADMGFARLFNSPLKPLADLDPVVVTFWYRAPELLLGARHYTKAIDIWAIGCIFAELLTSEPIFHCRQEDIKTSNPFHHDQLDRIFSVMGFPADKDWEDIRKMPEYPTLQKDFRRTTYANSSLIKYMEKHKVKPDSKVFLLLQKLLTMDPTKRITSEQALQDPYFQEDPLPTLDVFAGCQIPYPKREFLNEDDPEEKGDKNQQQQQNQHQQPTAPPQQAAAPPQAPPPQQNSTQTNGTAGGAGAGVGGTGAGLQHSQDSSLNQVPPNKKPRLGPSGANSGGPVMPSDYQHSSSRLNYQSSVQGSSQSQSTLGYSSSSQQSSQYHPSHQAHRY
UniProt P52333, sequence (whole entry, looked up): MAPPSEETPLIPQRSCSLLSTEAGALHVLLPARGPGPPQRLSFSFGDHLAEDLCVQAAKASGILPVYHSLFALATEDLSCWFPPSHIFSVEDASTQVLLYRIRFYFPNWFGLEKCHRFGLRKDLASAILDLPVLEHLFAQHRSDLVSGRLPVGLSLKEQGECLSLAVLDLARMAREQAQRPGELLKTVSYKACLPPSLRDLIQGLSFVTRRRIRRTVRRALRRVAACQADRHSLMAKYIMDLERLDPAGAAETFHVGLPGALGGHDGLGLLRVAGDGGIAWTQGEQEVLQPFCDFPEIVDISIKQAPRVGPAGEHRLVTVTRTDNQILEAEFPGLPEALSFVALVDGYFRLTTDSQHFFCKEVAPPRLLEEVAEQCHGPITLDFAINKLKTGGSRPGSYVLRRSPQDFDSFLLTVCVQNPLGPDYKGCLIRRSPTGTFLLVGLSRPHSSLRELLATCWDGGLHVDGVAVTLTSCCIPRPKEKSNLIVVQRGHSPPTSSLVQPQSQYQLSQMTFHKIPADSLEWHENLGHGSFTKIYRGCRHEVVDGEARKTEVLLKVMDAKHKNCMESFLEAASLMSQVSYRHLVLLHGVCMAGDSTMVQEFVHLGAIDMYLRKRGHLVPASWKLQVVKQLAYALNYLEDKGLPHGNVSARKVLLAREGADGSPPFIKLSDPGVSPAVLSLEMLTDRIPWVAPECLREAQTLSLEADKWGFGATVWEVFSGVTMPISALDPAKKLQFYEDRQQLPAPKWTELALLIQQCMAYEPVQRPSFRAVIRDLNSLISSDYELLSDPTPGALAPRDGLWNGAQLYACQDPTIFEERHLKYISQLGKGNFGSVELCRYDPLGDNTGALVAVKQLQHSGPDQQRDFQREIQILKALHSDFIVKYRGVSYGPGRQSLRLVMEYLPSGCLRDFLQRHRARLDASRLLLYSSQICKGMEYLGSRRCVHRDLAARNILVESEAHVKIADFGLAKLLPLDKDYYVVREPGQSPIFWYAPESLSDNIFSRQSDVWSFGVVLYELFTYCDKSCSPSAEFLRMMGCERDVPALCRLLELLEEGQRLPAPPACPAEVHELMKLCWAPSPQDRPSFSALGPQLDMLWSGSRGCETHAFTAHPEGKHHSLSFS

Series 1
Organism: Sarcocystis neurona
Read-out: parasite activity
Concentration: 10 µM
Time: 96 h
Compound | activity class
C[C@]12C=CC(=O)C=C1CC[C@@H]1[C@@H]2[C@@H](O)C[C@@]2(C)[C@H]1CC[C@]2(O)C(=O)CO | inactive
COc1cc2nc(N(C)CCCNC(=O)C3CCCO3)nc(N)c2cc1OC (centres unmarked) | inactive
O=c1cnn([C@@H]2O[C@H](CO)[C@@H](O)[C@H]2O)c(=O)[nH]1 | inactive
CN1[C@@H]2C[C@@H](OC(=O)[C@H](CO)c3ccccc3)C[C@H]1[C@@H]1O[C@@H]12 | inactive

Series 2
Structure (SMILES): CN(C)CC#Cc1ccc(OCCCc2sc(N3CCc4cccc(C(=O)Nc5nc6ccccc6s5)c4C3)nc2C(=O)O)c(F)c1
Concentration: 1 µM
target | read-out | technique | remaining binding [%]
Mitogen-activated protein kinase kinase kinase 1 (MAP3K1, Homo sapiens, UniProt Q13233) | cell-free assay | competition with immobilised ligand | 100
Epidermal growth factor receptor (EGFR, Homo sapiens, UniProt P00533, T790M) | cell-free assay | competition with immobilised ligand | 100
Cyclin-dependent kinase 19 (CDK19, Homo sapiens, UniProt Q9BWU1) | – | competition binding | 95
Bone morphogenetic protein receptor type-1B (BMPR1B, Homo sapiens, UniProt O00238) | cell-free assay | competition with immobilised ligand | 84
Ribosomal protein S6 kinase alpha-2, N-terminal kinase domain (RPS6KA2, Homo sapiens, UniProt Q15349) | cell-free assay | competition with immobilised ligand | 100

Series 3
SMILES: COc1cc2nccc(Oc3ccc(NC(=S)NC(=O)c4ccccc4C)cc3)c2cc1OC
Read-out: enzyme activity
Action: inhibitor
Concentration: 0.5 µM
Relative to: control
target | remaining activity
Casein kinase I isoform gamma-3 (CSNK1G3, Homo sapiens, UniProt Q9Y6M4) | 93.3%
Tyrosine-protein kinase JAK3 (JAK3, Homo sapiens, UniProt P52333) | 96.6%
Tyrosine-protein kinase FRK (FRK, Homo sapiens, UniProt P42685) | 27.5%
Macrophage-stimulating protein receptor (MST1R, Homo sapiens, UniProt Q04912) | 88.8%
Mitogen-activated protein kinase 3 (MAPK3, Homo sapiens, UniProt P27361) | 106%
Fibroblast growth factor receptor 3 (FGFR3, Homo sapiens, UniProt P22607) | 88.8%
Serine/threonine-protein kinase Nek1 (NEK1, Homo sapiens, UniProt Q96PY6) | 96.7%
Serine/threonine-protein kinase ULK2 (ULK2, Homo sapiens, UniProt Q8IYT8) | 88.8%
Dual specificity mitogen-activated protein kinase kinase 2 (MAP2K2, Homo sapiens, UniProt P36507) | 79.4%
Ribosomal protein S6 kinase alpha-2 (RPS6KA2, Homo sapiens, UniProt Q15349) | 91.1%
Tyrosine-protein kinase Lck (LCK, Homo sapiens, UniProt P06239) | 1.62%
Tyrosine-protein kinase Mer (MERTK, Homo sapiens, UniProt Q12866) | 32.3%
MAP kinase-activated protein kinase 2 (MAPKAPK2, Homo sapiens, UniProt P49137) | 98%

Series 4
Target: Beta-1 adrenergic receptor (ADRB1, Homo sapiens, UniProt P08588)
UniProt P08588, sequence (whole entry, looked up): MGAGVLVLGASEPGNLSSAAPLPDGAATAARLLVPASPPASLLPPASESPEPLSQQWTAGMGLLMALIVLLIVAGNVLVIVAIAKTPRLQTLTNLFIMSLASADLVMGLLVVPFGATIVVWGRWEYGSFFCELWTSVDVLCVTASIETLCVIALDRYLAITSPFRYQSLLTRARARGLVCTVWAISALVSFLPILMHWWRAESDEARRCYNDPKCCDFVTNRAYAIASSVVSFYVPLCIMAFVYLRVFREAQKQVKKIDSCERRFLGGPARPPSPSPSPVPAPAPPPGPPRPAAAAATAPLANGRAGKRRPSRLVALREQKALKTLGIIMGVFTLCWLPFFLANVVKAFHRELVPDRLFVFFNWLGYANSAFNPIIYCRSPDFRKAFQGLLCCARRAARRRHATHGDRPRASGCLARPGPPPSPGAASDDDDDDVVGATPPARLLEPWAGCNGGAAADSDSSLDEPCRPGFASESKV
Action: agonist
Compound | EC50
Cc1noc2c(-c3cccnc3)cc(-c3ccc(F)cc3)nc12 | ≥ 100 µM
O=C(Nc1cnc2ccccc2c1)c1cn(-c2ccccc2C(F)(F)F)nn1 | ≥ 100 µM
CN(C)Cc1cc(CC2(NCc3ccc(N(C)C)cc3)COC2)no1 | ≥ 100 µM
Cc1ccc2c(C(=O)N3CCC(F)(F)CC3)cc(-c3cnn(C(C)C)c3)nc2c1 | ≥ 100 µM

Excerpt of the above (series 3):
target | remaining activity
Serine/threonine-protein kinase Nek1 (NEK1, Homo sapiens, UniProt Q96PY6) | 96.7%
MAP kinase-activated protein kinase 2 (MAPKAPK2, Homo sapiens, UniProt P49137) | 98%
